Experimental data collected from several papers.
Every numbered part comes from another study and shows a few of its results, in no order. Changes are numbered by the printed parent chain.
Sequence of UniProt Q9Y5S2 (whole entry, looked up): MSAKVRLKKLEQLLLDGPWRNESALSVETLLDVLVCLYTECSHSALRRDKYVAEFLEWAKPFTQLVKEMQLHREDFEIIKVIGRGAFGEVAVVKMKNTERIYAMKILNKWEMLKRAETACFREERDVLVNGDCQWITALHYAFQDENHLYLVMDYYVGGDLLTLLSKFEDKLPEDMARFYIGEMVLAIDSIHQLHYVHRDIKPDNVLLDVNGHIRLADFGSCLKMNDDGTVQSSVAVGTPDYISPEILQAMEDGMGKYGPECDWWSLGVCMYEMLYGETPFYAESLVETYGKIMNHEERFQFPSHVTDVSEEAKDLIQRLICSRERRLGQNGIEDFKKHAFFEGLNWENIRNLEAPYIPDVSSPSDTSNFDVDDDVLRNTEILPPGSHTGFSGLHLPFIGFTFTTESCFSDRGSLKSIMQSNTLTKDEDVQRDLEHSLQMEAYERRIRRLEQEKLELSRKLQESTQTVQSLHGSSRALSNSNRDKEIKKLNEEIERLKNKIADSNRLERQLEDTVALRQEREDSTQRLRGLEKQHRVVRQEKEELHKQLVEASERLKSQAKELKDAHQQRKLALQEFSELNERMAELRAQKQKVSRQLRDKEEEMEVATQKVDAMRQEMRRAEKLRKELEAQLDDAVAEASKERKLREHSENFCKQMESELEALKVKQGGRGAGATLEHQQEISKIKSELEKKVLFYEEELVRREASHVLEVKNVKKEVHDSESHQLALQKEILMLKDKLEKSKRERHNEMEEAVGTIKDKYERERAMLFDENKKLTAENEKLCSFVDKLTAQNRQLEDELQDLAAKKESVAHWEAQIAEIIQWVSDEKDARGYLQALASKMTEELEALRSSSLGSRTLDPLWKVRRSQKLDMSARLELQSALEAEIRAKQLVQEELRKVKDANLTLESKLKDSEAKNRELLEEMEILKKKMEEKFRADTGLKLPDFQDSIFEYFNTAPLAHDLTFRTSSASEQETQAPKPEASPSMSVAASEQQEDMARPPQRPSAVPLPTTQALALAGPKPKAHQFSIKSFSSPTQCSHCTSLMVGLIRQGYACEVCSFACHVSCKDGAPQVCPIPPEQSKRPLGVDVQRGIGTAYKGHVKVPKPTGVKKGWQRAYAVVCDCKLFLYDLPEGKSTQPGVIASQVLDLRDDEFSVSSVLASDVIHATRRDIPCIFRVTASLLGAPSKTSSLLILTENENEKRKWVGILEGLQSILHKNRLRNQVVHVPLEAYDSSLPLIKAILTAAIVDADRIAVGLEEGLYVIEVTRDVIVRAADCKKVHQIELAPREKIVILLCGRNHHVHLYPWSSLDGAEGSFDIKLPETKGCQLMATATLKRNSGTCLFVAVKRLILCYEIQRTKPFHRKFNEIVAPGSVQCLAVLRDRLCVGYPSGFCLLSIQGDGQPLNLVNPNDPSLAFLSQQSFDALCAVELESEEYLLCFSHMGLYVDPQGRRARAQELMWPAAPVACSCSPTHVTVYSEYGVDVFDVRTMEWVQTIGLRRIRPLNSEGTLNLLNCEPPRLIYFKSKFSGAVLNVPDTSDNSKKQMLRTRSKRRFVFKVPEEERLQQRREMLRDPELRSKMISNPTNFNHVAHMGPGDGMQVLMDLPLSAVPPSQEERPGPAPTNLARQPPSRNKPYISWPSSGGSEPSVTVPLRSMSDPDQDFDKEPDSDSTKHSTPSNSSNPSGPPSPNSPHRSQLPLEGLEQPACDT
Sequence of UniProt P51956 (whole entry, looked up): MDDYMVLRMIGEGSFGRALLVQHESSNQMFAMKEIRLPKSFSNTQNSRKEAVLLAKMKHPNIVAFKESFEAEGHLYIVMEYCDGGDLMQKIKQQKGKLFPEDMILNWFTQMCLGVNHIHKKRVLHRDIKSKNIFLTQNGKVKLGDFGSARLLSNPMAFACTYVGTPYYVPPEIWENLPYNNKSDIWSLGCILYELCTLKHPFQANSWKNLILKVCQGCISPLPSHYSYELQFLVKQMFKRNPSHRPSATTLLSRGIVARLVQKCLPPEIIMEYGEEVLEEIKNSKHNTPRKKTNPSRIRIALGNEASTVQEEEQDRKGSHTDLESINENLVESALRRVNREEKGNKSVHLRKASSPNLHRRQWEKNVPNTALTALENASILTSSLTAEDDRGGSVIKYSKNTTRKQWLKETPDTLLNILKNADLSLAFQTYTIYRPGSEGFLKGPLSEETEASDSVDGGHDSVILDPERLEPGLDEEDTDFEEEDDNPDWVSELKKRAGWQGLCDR
Sequence of UniProt P42336 (whole entry, unmodified, looked up): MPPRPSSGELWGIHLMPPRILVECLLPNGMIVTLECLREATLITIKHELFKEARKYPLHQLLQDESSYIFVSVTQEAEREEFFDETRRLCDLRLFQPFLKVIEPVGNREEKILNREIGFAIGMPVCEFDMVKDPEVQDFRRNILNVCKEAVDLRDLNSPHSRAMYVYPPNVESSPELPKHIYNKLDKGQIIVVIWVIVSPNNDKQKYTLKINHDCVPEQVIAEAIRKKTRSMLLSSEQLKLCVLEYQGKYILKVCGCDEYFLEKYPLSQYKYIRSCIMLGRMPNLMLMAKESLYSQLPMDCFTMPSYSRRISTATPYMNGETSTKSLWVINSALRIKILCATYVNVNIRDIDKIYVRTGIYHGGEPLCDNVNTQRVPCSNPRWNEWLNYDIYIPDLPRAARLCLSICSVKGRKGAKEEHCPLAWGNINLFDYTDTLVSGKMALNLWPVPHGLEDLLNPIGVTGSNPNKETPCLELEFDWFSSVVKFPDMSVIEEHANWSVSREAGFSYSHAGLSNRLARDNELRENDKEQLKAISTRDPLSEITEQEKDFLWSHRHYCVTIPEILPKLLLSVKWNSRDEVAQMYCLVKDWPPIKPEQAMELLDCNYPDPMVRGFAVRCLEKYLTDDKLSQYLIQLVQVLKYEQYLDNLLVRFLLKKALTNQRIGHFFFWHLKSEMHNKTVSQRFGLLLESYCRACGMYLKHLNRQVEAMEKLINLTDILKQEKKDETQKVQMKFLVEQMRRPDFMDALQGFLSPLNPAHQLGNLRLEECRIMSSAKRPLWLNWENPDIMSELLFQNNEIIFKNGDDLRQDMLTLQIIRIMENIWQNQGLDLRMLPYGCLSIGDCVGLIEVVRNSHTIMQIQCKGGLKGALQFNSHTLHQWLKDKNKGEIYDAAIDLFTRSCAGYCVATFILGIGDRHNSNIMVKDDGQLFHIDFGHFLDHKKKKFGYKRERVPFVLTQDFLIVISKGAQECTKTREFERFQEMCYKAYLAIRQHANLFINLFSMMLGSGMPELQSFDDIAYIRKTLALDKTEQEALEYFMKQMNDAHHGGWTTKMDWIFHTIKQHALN
Sequence of UniProt P53350 (whole entry, looked up): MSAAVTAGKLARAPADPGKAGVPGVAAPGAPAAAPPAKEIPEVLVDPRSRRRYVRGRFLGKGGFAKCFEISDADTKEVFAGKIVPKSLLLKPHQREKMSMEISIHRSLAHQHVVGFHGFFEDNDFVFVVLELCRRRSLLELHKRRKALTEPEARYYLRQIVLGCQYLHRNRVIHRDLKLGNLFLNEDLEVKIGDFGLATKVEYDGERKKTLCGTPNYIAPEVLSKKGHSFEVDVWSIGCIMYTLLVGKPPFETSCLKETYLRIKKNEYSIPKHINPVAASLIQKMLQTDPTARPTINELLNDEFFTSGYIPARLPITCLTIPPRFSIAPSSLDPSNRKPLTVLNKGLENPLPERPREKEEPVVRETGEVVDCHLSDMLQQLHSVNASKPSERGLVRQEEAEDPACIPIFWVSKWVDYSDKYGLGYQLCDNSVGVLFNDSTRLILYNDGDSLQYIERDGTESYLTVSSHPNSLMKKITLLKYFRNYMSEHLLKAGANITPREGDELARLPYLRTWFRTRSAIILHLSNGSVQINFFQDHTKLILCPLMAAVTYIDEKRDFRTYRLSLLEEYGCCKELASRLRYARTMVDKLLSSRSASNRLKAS

Study 1
Compound: O=C1NC(c2ccccn2)Sc2ccccc21 (centres unmarked)
Effect on: cell-free assay
Method: competition with immobilised ligand
Concentration: 1 µM
It gave 100% for remaining binding (Serine/threonine-protein kinase MRCK beta (CDC42BPB, Homo sapiens, UniProt Q9Y5S2)).
It gave 100% for remaining binding (Epidermal growth factor receptor (EGFR, Homo sapiens, UniProt P00533, del746-750)).
For Epidermal growth factor receptor (EGFR, Homo sapiens, UniProt P00533, L858R): remaining binding read 86%.
Serine/threonine-protein kinase SIK2 (SIK2, Homo sapiens, UniProt Q9H0K1) — remaining binding: 96%.
It gave 92% for remaining binding (Receptor-type tyrosine-protein kinase FLT3, autoinhibited (FLT3, Homo sapiens, UniProt P36888)).
For Casein kinase I isoform alpha-like (CSNK1A1L, Homo sapiens, UniProt Q8N752): remaining binding read 89%.
Serine/threonine-protein kinase Nek3 (NEK3, Homo sapiens, UniProt P51956) — remaining binding: 80%.
For Mitogen-activated protein kinase kinase kinase 3 (MAP3K3, Homo sapiens, UniProt Q99759): remaining binding read 93%.
It gave 100% for remaining binding (Phosphatidylinositol 4,5-bisphosphate 3-kinase catalytic subunit alpha isoform (PIK3CA, Homo sapiens, UniProt P42336, Q546K)).
It gave 65% for remaining binding (Mitogen-activated protein kinase kinase kinase 6 (MAP3K6, Homo sapiens, UniProt O95382)).
Serine/threonine-protein kinase PLK1 (PLK1, Homo sapiens, UniProt P53350) — remaining binding: 100%.
Tyrosine-protein kinase ABL1, non-phosphorylated (ABL1, Homo sapiens, UniProt P00519, F317L) — remaining binding: 100%.
Cyclin-dependent kinase 13 (CDK13, Homo sapiens, UniProt Q14004) — remaining binding: 90%.

Study 2
Species: mouse
Matrix: microsomes or S9
Concentration: 2 µM
Time: 0.5 h
Cc1noc(C)c1Cc1c(C(=O)N2CCC(C3CCNC3)CC2)noc1C (centres unmarked) gave a remaining compound of 96.3%.
With Cc1ccc2nc(-c3nnc(-c4noc5c4CC(C)CC5)o3)ccc2c1 (centres unmarked) the remaining compound was 0.0361%.
The remaining compound of C[C@@H](c1cn(-c2cccc[n+]2[O-])c(=O)c2c(C(F)(F)F)cccc12)N1C(=O)c2ccccc2C1=O is reported as 1.62%.
The remaining compound of O=C(O)C[C@]1(C(=O)NCc2ccccc2)CC(/C=C/c2ccccc2)=NO1 is reported as > 100%.
CN1CCc2c(c3ccccc3n2-c2cncnc2)C1 has a remaining compound of 28.8%.

Study 3
Target: CCNB2, cyclin fold, Cln2 fusion (human)
Method: yeast growth competition, sequencing
Matrix: yeast
Setting: weak parent motif
Relative to: not given
Reading: higher = stronger binding
Starting sequence: GMNC docking peptide (human); KNAKRNLSSEFAN; partner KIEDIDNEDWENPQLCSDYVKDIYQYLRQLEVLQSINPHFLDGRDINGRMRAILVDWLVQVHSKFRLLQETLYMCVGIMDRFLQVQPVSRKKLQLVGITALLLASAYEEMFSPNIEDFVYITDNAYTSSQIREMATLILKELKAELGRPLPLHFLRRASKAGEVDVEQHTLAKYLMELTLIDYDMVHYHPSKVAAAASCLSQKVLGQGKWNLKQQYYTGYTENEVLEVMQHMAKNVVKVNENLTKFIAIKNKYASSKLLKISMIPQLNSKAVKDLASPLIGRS
`K4E`: “normalised enrichment score” -0.311.
`R5D` — result for “normalised enrichment score”: -0.0726.
Under “normalised enrichment score”, `A3G` is recorded as 0.446.
Under “normalised enrichment score”, `L7F` is recorded as 0.108.
`A12M` — result for “normalised enrichment score”: 0.304.
For `S9I`, “normalised enrichment score” read 0.44.
Under “normalised enrichment score”, `K4S` is recorded as 0.392.
`A3Y`: “normalised enrichment score” 0.274.

Mixed results
Nc1ncnc2n[nH]c(Nc3ccc(F)cc3)c12 gave a nuclei count of 1.79 z-score (mouse MPNST tumor cells; high-content nuclear imaging, refers to: cell number; 10 µM, 12 h, mean of 2 replicates; relative to: plate mean, higher = more cells).
CC(C)n1cnc(-c2ccc(F)cc2)c1-c1ncc(C(=O)Nc2ccc(N3CCN(C)CC3)cc2)[nH]1: “patients with serious adverse event” 20% (refers to: grade ≥3 events; patients with idiopathic pulmonary fibrosis; 30 mg twice daily, trial, without standard of care).
Nc1ccc(-c2cccc3c(=O)cc(N4CCOCC4)oc23)cc1 has a nuclei count of -0.183 z-score (mouse MPNST tumor cells; high-content nuclear imaging, refers to: cell number; 10 µM, 12 h, mean of 2 replicates; relative to: plate mean, higher = more cells).

For quick reference, copied from above (study 1):
Serine/threonine-protein kinase SIK2 (SIK2, Homo sapiens, UniProt Q9H0K1) — remaining binding: 96%.
It gave 100% for remaining binding (Epidermal growth factor receptor (EGFR, Homo sapiens, UniProt P00533, del746-750)).
Serine/threonine-protein kinase Nek3 (NEK3, Homo sapiens, UniProt P51956) — remaining binding: 80%.
For Mitogen-activated protein kinase kinase kinase 3 (MAP3K3, Homo sapiens, UniProt Q99759): remaining binding read 93%.
